Published values from different studies.
Protocols differ between the studies behind these lines.
Organism: Klebsiella pneumoniae

| SMILES | test | system | conditions | MIC |
| --- | --- | --- | --- | --- |
| c1ccc(CN2CCOCCOCCN(CCCCCCCCCCCCN3CCOCCOCCN(CCCCCCCCCCCCN4CCOCCOCCN(Cc5ccccc5)CCOCCOCC4)CCOCCOCC3)CCOCCOCC2)cc1 |  | ATCC BAA-2146 |  | 35 µM |
| CCCCCCCCCC[N+](C)(C)CCCCCCOc1cc(OCCCCCC[N+](C)(C)CCCCCCCCCC)cc(OCCCCCC[N+](C)(C)CCCCCCCCCC)c1.[Br-].[Br-].[Br-] |  | ATCC 4352 |  | 1 µM |
| CCCCCCC#Cc1cncc(-c2nnc(SCc3cc([N+](=O)[O-])cc([N+](=O)[O-])c3)n2C)c1 | microbial growth, broth dilution | DSM30104 |  | > 64 µg/mL |
| CN[C@H](CC(C)C)C(=O)N[C@H]1C(=O)N[C@@H](CC(N)=O)C(=O)N[C@H]2C(=O)N[C@H]3C(=O)N[C@H](C(=O)N[C@H](C(=O)NCc4cn(CCCCC(=O)N[C@H](C(=O)N[C@@H](CCN)C(=O)N[C@H]5CCNC(=O)[C@H]([C@@H](C)O)NC(=O)[C@H](CCN)NC(=O)[C@H](CCN)NC(=O)[C@H](CC(C)C)NC(=O)[C@@H](CC(C)C)NC(=O)[C@H](CCN)NC5=O)[C@@H](C)O)nn4)c4cc(O)cc(O)c4-c4cc3ccc4O)[C@H](O)c3ccc(c(Cl)c3)Oc3cc2cc(c3O[C@@H]2O[C@H](CO)[C@@H](O)[C@H](O)[C@H]2O[C@H]2C[C@](C)(N)[C@H](O)[C@H](C)O2)Oc2ccc(cc2Cl)[C@H]1O | broth microdilution | ATCC 27736, cation-adjusted Mueller-Hinton broth | 18 to 20 h, 37 °C, 0.002% polysorbate 80 | 16 µg/mL |
| CC[C@H]1OC(=O)[C@H](C)[C@@H](OC(=O)Cc2cccc(Cl)c2)[C@H](C)[C@@H](O[C@@H]2O[C@H](C)C[C@H](N(C)C)[C@H]2O)[C@](C)(OC)C[C@@H](C)C(=O)[C@H](C)[C@@H](O)[C@]1(C)O | microbial growth | ATCC700603 |  | > 32 µg/mL |
| CCCCCCCCCCCC[N+](C)(C)CCCCCCCCCCOc1cc(OCCCCCCCCCC[N+](C)(C)CCCCCCCCCCCC)cc(OCCCCCCCCCC[N+](C)(C)CCCCCCCCCCCC)c1.[Br-].[Br-].[Br-] |  | ATCC 4352 |  | 250 µM |
| CCOc1c(NC(=O)c2ccc(NC(=O)c3ccc(NC(=O)[C@H](Cc4c[nH]nn4)NC(=O)c4ccc(NC(=O)/C(C)=C/c5ccc(O)cc5)cc4)cc3)c(OCC)c2O)ccc(C(=O)O)c1O | broth microdilution | ciprofloxacin-sensitive |  | 16 µg/mL |
| CCCCCCCCCCn1cc[n+](CCCCCCOc2cc(OCCCCCC[n+]3ccn(CCCCCCCCCC)c3)cc(OCCCCCC[n+]3ccn(CCCCCCCCCC)c3)c2)c1.[Br-].[Br-].[Br-] |  | ATCC 4352 |  | 4 µM |
| CC1(C)C(NC(=O)C(=NOC2(C(=O)O)CCC2)c2csc(N)n2)C(=O)N1OS(=O)(=O)O (stereo not drawn) | agar dilution | ATCC 700603, ESBL-producing |  | 1 µg/mL |
| CCCCCCCCCC[N+](C)(C)CCCCCCCCCCOc1cc(OCCCCCCCCCC[N+](C)(C)CCCCCCCCCC)cc(OCCCCCCCCCC[N+](C)(C)CCCCCCCCCC)c1.[Br-].[Br-].[Br-] |  | ATCC 4352 |  | 250 µM |
| CCCCCCCC[C@@H]1NC(=O)[C@@H](Cc2ccccc2)NC(=O)[C@H](CCN)NC(=O)[C@@H](NC(=O)[C@H](CCN)NC(=O)[C@@H](NC(=O)[C@H](CCN)NC(=O)CCCCCCC)[C@@H](C)O)CCNC(=O)[C@H]([C@@H](C)O)NC(=O)[C@H](CCN)NC(=O)[C@H](CCN)NC1=O | broth microdilution | ATCC 19606 |  | < 0.125 µg/mL |
| C=CCO/N=C(\C(=O)N[C@@H]1C(=O)N(OS(=O)(=O)O)C1(C)C)c1csc(N)n1 | agar dilution | 16-14, ESBL-producing |  | 0.5 µg/mL |
| CCCCCCCC[N+](C)(C)CCCCCCCCCCOc1cc(OCCCCCCCCCC[N+](C)(C)CCCCCCCC)cc(OCCCCCCCCCC[N+](C)(C)CCCCCCCC)c1.[Br-].[Br-].[Br-] |  | ATCC 4352 |  | 63 µM |
| CC(C)C[C@@H]1NC(=O)[C@@H](CC(C)C)NC(=O)[C@H](CCN)NC(=O)[C@@H](NC(=O)[C@H](CCN)NC(=O)[C@@H](NC(=O)CN=[N+]=[N-])[C@@H](C)O)CCNC(=O)[C@H]([C@@H](C)O)NC(=O)[C@H](CCN)NC(=O)[C@H](CCN)NC1=O | broth microdilution | ATCC 27736, cation-adjusted Mueller-Hinton broth | 18 to 20 h, 37 °C, 0.002% polysorbate 80 | 32 µg/mL |
| CCCCCCCCCCCC[N+](C)(C)CCCCOc1cc(OCCCC[N+](C)(C)CCCCCCCCCCCC)cc(OCCCC[N+](C)(C)CCCCCCCCCCCC)c1.[Br-].[Br-].[Br-] |  | ATCC 4352 |  | 4 µM |
| CC1(C)[C@H](NC(=O)/C(=N\OCc2cc(=O)c(O)cn2O)c2csc(N)n2)C(=O)N1OS(=O)(=O)O | agar dilution | ATCC 700603 ESBL |  | 32 µg/mL |
| CC[C@H](C)[C@H](NC(=O)[C@@H](CCCNC(=N)N)NC(=O)[C@H](CCCNC(=N)N)NC(=O)[C@@H]1CCCN1C(=O)[C@@H]1CCCN1C(=O)[C@H](CCCNC(=N)N)NC(=O)[C@@H]1CCCN1C(=O)[C@H](CCCNC(=N)N)NC(=O)[C@@H]1CCCN1C(=O)[C@H](CC(C)C)NC(=O)[C@H](Cc1ccc(O)cc1)NC(=O)[C@@H]1CCCN1C(=O)[C@@H]1CCCN1C(=O)[C@H](CCCNC(=N)N)NC(=O)[C@H](CC(=O)O)NC(=O)[C@@H](N)C(C)C)C(=O)N[C@@H](Cc1ccc(O)cc1)C(=O)N[C@@H](CC(N)=O)C(=O)N[C@H](CCCNC(=N)N)C(N)=O | broth microdilution | DSM 681 | 18 h, 37 °C, 25% MHB2 | 8 µg/mL |
| C#CCO/N=C(\C(=O)N[C@@H]1C(=O)N(S(=O)(=O)O)[C@H]1C)c1csc(N)n1 | agar dilution | ATCC 700603 ESBL |  | 64 µg/mL |
| CC[C@H]1OC(=O)[C@H](C)[C@@H](OC(=O)Cc2ccc([N+](=O)[O-])cc2)[C@H](C)[C@@H](O[C@@H]2O[C@H](C)C[C@H](N(C)C)[C@H]2O)[C@](C)(OC)C[C@@H](C)C(=O)[C@H](C)[C@@H](O)[C@]1(C)O | microbial growth | ATCC700603 |  | > 32 µg/mL |
| CC1(C)[C@H](NC(=O)/C(=N\OCCN)c2csc(N)n2)C(=O)N1OS(=O)(=O)O | agar dilution | ATCC 700603, ESBL-producing |  | > 64 µg/mL |
| CC(C)C[C@@H]1NC(=O)[C@@H](CC(C)C)NC(=O)[C@H](CCN)NC(=O)[C@@H](NC(=O)[C@H](CCN)NC(=O)[C@@H](NC(=O)CCOCCOCCOCCN=[N+]=[N-])[C@@H](C)O)CCNC(=O)[C@H]([C@@H](C)O)NC(=O)[C@H](CCN)NC(=O)[C@H](CCN)NC1=O | broth microdilution | ATCC 13883, cation-adjusted Mueller-Hinton broth | 18 to 20 h, 37 °C, 0.002% polysorbate 80 | 32 µg/mL |
| CC1(C)[C@H](NC(=O)/C(=N\OCCN)c2nsc(N)n2)C(=O)N1OS(=O)(=O)O | agar dilution | 16-14, ESBL-producing |  | 64 µg/mL |
| C#CCOc1ccc(CN[C@@]2(C)C[C@H](O[C@H]3[C@H](Oc4c5cc6cc4Oc4ccc(cc4Cl)[C@@H](O)[C@@H](NC(=O)[C@@H](CC(C)C)NC)C(=O)N[C@@H](CC(N)=O)C(=O)N[C@H]6C(=O)N[C@H]4C(=O)N[C@H](C(=O)N[C@H](C(=O)N[C@@H](CCCNC(=N)N)C(N)=O)c6cc(O)cc(O)c6-c6cc4ccc6O)[C@H](O)c4ccc(c(Cl)c4)O5)O[C@H](CO)[C@@H](O)[C@@H]3O)O[C@@H](C)[C@H]2O)cc1OC | broth microdilution | ATCC 13883, cation-adjusted Mueller-Hinton broth | 18 to 20 h, 37 °C, 0.002% polysorbate 80 | 128 µg/mL |
| C=CCO/N=C(\C(=O)N[C@@H]1C(=O)N(S(=O)(=O)O)[C@H]1C)c1csc(N)n1 | agar dilution | ATCC 700603 ESBL |  | 4 µg/mL |
| CN[C@H](CC(C)C)C(=O)N[C@H]1C(=O)N[C@@H](CC(N)=O)C(=O)N[C@H]2C(=O)N[C@H]3C(=O)N[C@H](C(=O)N[C@H](C(=O)NCc4cn(CC(=O)N[C@H](C(=O)N[C@@H](CCN)C(=O)N[C@H]5CCNC(=O)[C@H]([C@@H](C)O)NC(=O)[C@H](CCN)NC(=O)[C@H](CCN)NC(=O)[C@H](CC(C)C)NC(=O)[C@@H](CC(C)C)NC(=O)[C@H](CCN)NC5=O)[C@@H](C)O)nn4)c4cc(O)cc(O)c4-c4cc3ccc4O)[C@H](O)c3ccc(c(Cl)c3)Oc3cc2cc(c3O[C@@H]2O[C@H](CO)[C@@H](O)[C@H](O)[C@H]2O[C@H]2C[C@](C)(N)[C@H](O)[C@H](C)O2)Oc2ccc(cc2Cl)[C@H]1O | broth microdilution | ATCC 13883, cation-adjusted Mueller-Hinton broth | 18 to 20 h, 37 °C, 0.002% polysorbate 80 | 32 µg/mL |
| CC1(C)C(NC(=O)C(=NOCC(=O)N2CC3CCCC3C2C(=O)O)c2csc(N)n2)C(=O)N1OS(=O)(=O)O (stereo not drawn) | agar dilution | 16-14, ESBL-producing |  | 2 µg/mL |
| CC[C@H]1OC(=O)[C@H](C)[C@@H](OC(=O)c2ccc(N)cc2)[C@H](C)[C@@H](O[C@@H]2O[C@H](C)C[C@H](N(C)C)[C@H]2O)[C@](C)(OC)C[C@@H](C)C(=O)[C@H](C)[C@@H](O)[C@]1(C)O | microbial growth | ATCC700603 |  | > 32 µg/mL |

Excerpt of the above:
| SMILES | test | system | conditions | MIC |
| --- | --- | --- | --- | --- |
| CCCCCCCCCCCC[N+](C)(C)CCCCOc1cc(OCCCC[N+](C)(C)CCCCCCCCCCCC)cc(OCCCC[N+](C)(C)CCCCCCCCCCCC)c1.[Br-].[Br-].[Br-] |  | ATCC 4352 |  | 4 µM |
| CC1(C)C(NC(=O)C(=NOCC(=O)N2CC3CCCC3C2C(=O)O)c2csc(N)n2)C(=O)N1OS(=O)(=O)O (stereo not drawn) | agar dilution | 16-14, ESBL-producing |  | 2 µg/mL |
| CCOc1c(NC(=O)c2ccc(NC(=O)c3ccc(NC(=O)[C@H](Cc4c[nH]nn4)NC(=O)c4ccc(NC(=O)/C(C)=C/c5ccc(O)cc5)cc4)cc3)c(OCC)c2O)ccc(C(=O)O)c1O | broth microdilution | ciprofloxacin-sensitive |  | 16 µg/mL |
| CC(C)C[C@@H]1NC(=O)[C@@H](CC(C)C)NC(=O)[C@H](CCN)NC(=O)[C@@H](NC(=O)[C@H](CCN)NC(=O)[C@@H](NC(=O)CN=[N+]=[N-])[C@@H](C)O)CCNC(=O)[C@H]([C@@H](C)O)NC(=O)[C@H](CCN)NC(=O)[C@H](CCN)NC1=O | broth microdilution | ATCC 27736, cation-adjusted Mueller-Hinton broth | 18 to 20 h, 37 °C, 0.002% polysorbate 80 | 32 µg/mL |
